# Experimental data pooled from the literature.
# Each line is one published result; not all experiments were run side by side. Values joined by “and” are separate records of one study, mostly repeats; a detail may differ.
# Target: Mitogen-activated protein kinase kinase kinase 2 (MAP3K2, Homo sapiens, UniProt Q9Y2U5)
SMILES,assay,test system,setting,scale,measurement,result
Cc1cc(NC(=O)[C@H](O)c2cc(F)cc(F)c2)ccc1-c1cnc(N)c(C(=O)NC(C)C)c1,"binding, competition with immobilised ligand",,0.1 µM,,remaining binding,67%
Cc1ccc(-c2c(/C=C(\C#N)C(=O)NC(C)C)n(CCCO)c3ncnc(N)c23)cc1,"cell-free assay, competition with immobilised ligand",,1 µM,,remaining binding,66%
NC(=O)[C@@H](O)C[C@H]1CCc2sc3ncnc(O[C@H]4CC[C@H](N5CCOCC5)CC4)c3c21,"enzyme activity, inhibitor",,10 µM,,inhibition,6%
C=CC(=O)Nc1cc(-c2nn(C3CCN(CCNC(=O)[C@H](C)CCC45CC6CC(CC(C6)C4)C5)CC3)c3ncnc(N)c23)ccc1Oc1ccccc1,"inhibitor, KiNativ profiling",biochemical,2 µM,,inhibition,18.3%
CNC1C[S+]2CC[S+]3CC[S+](C1)[Ru-4]321([N]=C=S)[n]2c3ccc(OC)cc3c3c4c(c5cc(F)c[n+]1c5c32)C(=O)NC4=O (stereo not shown),KinomeScan,,0.1 µM,baseline: untreated,remaining binding,100%
COc1cc(Nc2nccc(-c3cnn4nc(OC)ccc34)n2)cc(C(F)(F)F)c1,"binding, competition with immobilised ligand",,1 µM,,remaining binding,87%
C=CC(=O)N1CCc2ccc(-n3c(=O)ccc4cnc5ccc(-c6cnn(C)c6)cc5c43)cc21,KINOMEscan,,1 µM,baseline: DMSO control,remaining binding,99%
O=C(Cc1ccc(OCc2ccccc2)cc1)NC1(C(=O)O)CCN(C(=O)c2ccc(-c3cccc(Cl)c3)cc2)CC1,"enzyme activity, inhibitor",,10 µM,,activity vs control,103%
CNC(=O)C1CCN(c2cc(C)c(F)cc2NC(=O)c2ccc(-c3cc(O)ccc3C)c(C)c2)CC1,"binding, competition with immobilised ligand",,1 µM,,remaining binding,92%
N[C@H]1CC[C@H](Nc2nccc(-c3cccnc3Oc3ccc(NC(=O)NC4CC4)c4ccccc34)n2)CC1,kinobead competition pulldown,HEK293/HCT116 lysate mixture,"10 µM, 1 h, 4 °C",lower = stronger competition,log2 LFQ intensity,26.8 and 26.9 and 26.7
C=CC(=O)N1Cc2nc(-c3cc(-c4cc(Cl)cnc4Cl)c(F)cc3F)n(-c3ccncn3)c2C1,"cell-free assay, inhibitor",,1 µM,,inhibition,-2%
Nc1ncc(-c2cc(-c3cnn(CC(F)(F)F)c3)ncc2F)nc1C(=O)NC1CNCC(F)C1 (stereo not shown),enzyme activity,,1 µM,baseline: DMSO control,remaining activity,84.5%
C=CC(=O)N1CCCC(n2c(=O)c3ncccc3n(Cc3ccc(Oc4ccccc4)cc3)c2=O)C1 (stereo not shown),"cell-free assay, competition with immobilised ligand",,1 µM,,remaining binding,78%

# Some of these lines once more:
SMILES,assay,test system,setting,scale,measurement,result
Nc1ncc(-c2cc(-c3cnn(CC(F)(F)F)c3)ncc2F)nc1C(=O)NC1CNCC(F)C1 (stereo not shown),enzyme activity,,1 µM,baseline: DMSO control,remaining activity,84.5%
